{"data": "Assay results from different studies", "note": "Parts stem from different laboratories: compare values within a part only. Positions count from the first letter of the parent shown."}
{"data": "Set 1", "target": "ABI1, truncated, D143A, DHFR fusion (Arabidopsis thaliana)", "method": "DHFR PCA, deep sequencing", "medium": "yeast", "setting": "methotrexate growth selection, single substitutions", "added": "(+)-ABA 4.8 µM", "baseline": "wild-type fitted maximum", "direction": "higher = stronger binding", "starting sequence": "PYL1, truncated, DHFR fusion (Arabidopsis thaliana); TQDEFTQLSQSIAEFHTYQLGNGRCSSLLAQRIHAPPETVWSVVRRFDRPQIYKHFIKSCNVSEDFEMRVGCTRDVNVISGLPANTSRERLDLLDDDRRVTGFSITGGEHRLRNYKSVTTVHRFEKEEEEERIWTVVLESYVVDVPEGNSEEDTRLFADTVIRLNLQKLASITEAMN"}
{"Change": "P50M", "relative binding score [%]": -17.7}
{"Change": "Y53R", "relative binding score [%]": 7.11}
{"Change": "L91N", "relative binding score [%]": 3.16}
{"Change": "R90C", "relative binding score [%]": 33}
{"Change": "K116P", "relative binding score [%]": -6.32}
{"Change": "K58E", "relative binding score [%]": 47.8}
{"Change": "S26I", "relative binding score [%]": 9.88}
{"Change": "N149F", "relative binding score [%]": -9.52}
{"Change": "R98H", "relative binding score [%]": 41.6}
{"Change": "R113M", "relative binding score [%]": 65.6}
{"Change": "A170E", "relative binding score [%]": 18.5}
{"data": "Set 2", "target": "Sal-like protein 4, full length isoform B (SALL4, Homo sapiens, UniProt Q9UJQ4-2, residues 1-616)", "method": "universal PBM", "molecule type": "double-stranded DNA, one strand shown", "medium": "in vitro", "concentration": "not given", "setting": "8-mer, flanks averaged, mean of replicates", "direction": "higher = stronger binding"}
{"Strand": "ACACCACA", "E-score": -0.0164}
{"Strand": "ACGCGTTC", "E-score": -0.113}
{"Strand": "AATGGGTC", "E-score": -0.162}
{"Strand": "CACAGCAA", "E-score": 0.0836}
{"Strand": "CGGGCCTC", "E-score": -0.224}
{"Strand": "CTAGTGAC", "E-score": 0.103}
{"Strand": "GTGTCGTA", "E-score": 0.0702}
{"Strand": "TGAAGCCA", "E-score": 0.0858}
{"Strand": "AGATGGCA", "E-score": 0.092}
{"data": "Set 3", "target": "RING finger protein unkempt homolog, zinc fingers 1-6, GST-SBP tag (UNK, Homo sapiens, UniProt Q9C0B0, residues 30-357)", "method": "RNA Bind-n-Seq", "molecule type": "RNA", "medium": "in vitro", "concentration": "not given", "setting": "RNA with constant flanks, human and mouse sites, ends assumed", "baseline": "input RNA pool", "direction": "higher = stronger binding", "shared flanks, not repeated": "GGGAGUUCUACAGUCCGACGAUC … CAACAGAGGAUUGAGCAUCA", "UniProt Q9C0B0, sequence (30-357, looked up)": "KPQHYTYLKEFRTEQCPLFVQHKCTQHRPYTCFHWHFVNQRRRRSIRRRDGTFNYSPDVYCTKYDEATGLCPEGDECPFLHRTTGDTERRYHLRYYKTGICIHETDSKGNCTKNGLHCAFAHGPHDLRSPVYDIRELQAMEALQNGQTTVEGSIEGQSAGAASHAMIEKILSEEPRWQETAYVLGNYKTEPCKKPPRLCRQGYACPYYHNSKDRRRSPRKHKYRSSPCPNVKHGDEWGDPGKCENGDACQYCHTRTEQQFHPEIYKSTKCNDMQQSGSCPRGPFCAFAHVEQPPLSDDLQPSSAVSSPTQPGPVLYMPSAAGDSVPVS"}
{"Strand": "UCUGAAACACCUCAAGAAACGUACAGAAAAGUGAUGAACUGGAAAGAAACUCUGGUAUUUCCUCCAGAGGUACCUAUAUCUGAGAAAGCCAAGGACUUAAUUCUCAGAUUUUGUAUUGAU", "bound/input enrichment": "0.129 ratio"}
{"Strand": "ACCUCCCCCUCCCGCCUCACCCCACCCCCGCUUUUUGGAAAGUUUUUGGCGUUUCUUUUCCUUCCCCAUACAAAGUGAUUACAGUUUCCCCCGCAAGGGUCUAUCGAAGGGCUUGACGGA", "bound/input enrichment": "1.32 ratio"}
{"Strand": "GAUCACUUCAUUUCUAAGUGUUUUAAGUGGGGAGCAAAGUACAUGUUAAAAGCAUGUUGCAUUAGAUAUAAAUUCAGUUUUUUAAACUCUUACCAAUGUAAGAACUGCAGAAAUAUUUUU", "bound/input enrichment": "3.28 ratio"}
{"Strand": "GCUGAUCGGUCUUGAUGCAGAACUUUAUUAUGUGAGAAAUGACCUUAUUAGUCACUACGCUCUAUCCUUUAGUCUGUUAGUACCCAGUGAGACAAAUUUCCUGCACUUCACCUGGCAUGC", "bound/input enrichment": "0.351 ratio"}
{"Strand": "CCUGUCAUUCACAACGGAAGCCAAGGAACAGGAACAAAUGGUUCGGAAAUCAGUGAUAGUGAUUAUCAGGCAGAAUACCCUGAUGAGUAUCAUGGCGAGUACCAGGAUGACUACCCCAGA", "bound/input enrichment": "0.127 ratio"}
{"Strand": "CGAGUGGAUCAGGGGGCUGCAACAGCUCUCAGAAAGGAGAAUACCAGCAACAUCUUUUAUAGCAAAAAUACUGACUAUCCUGAACUUCAGCAGCAAAACACAGAUUCAAAUUACCAGACC", "bound/input enrichment": "0.755 ratio"}
{"Strand": "GCCAAUCCAGGUACAAACUGGGGGGAGACUUUAAAACCUGGCCCCCAACAGAACUGGGCUAGCAAACCCCAAGACAACAAUGUGAGUAACUGGGGAGGAGCUGCUUCUGUGAAACAGACA", "bound/input enrichment": "0.213 ratio"}
{"Strand": "AAUUGAACAAAAAUGUUUCCACUGGCUUUUGCCUGUAAGAAAAAAAAUGUACCCGAGCACAUAGAGCUUUUUAAUAGCACUAACCAAUGCCUUUUUAGAUGUAUUUUUGAUGUAUAUAUC", "bound/input enrichment": "136 ratio"}
{"data": "Mixed results"}
{"Substance": "PhoQ, residues 284 288 289 292 302 303 ASTSDA", "target": "PhoP, residues 12 14 15 18 19 LHSVQ (Escherichia coli, UniProt P23836)", "assay": "Sort-seq, measured: YFP reporter", "system": "E. coli", "setting": "PhoQ-PhoP variant library, added: 10 µM Mg2+", "scale": "baseline: high Mg2+ state, higher = stronger signaling", "endpoint": "fold induction", "value": 7.32}
{"note": "A few entries again (set 3):"}
{"Strand": "UCUGAAACACCUCAAGAAACGUACAGAAAAGUGAUGAACUGGAAAGAAACUCUGGUAUUUCCUCCAGAGGUACCUAUAUCUGAGAAAGCCAAGGACUUAAUUCUCAGAUUUUGUAUUGAU", "bound/input enrichment": "0.129 ratio"}
{"Strand": "GCCAAUCCAGGUACAAACUGGGGGGAGACUUUAAAACCUGGCCCCCAACAGAACUGGGCUAGCAAACCCCAAGACAACAAUGUGAGUAACUGGGGAGGAGCUGCUUCUGUGAAACAGACA", "bound/input enrichment": "0.213 ratio"}
{"Strand": "CGAGUGGAUCAGGGGGCUGCAACAGCUCUCAGAAAGGAGAAUACCAGCAACAUCUUUUAUAGCAAAAAUACUGACUAUCCUGAACUUCAGCAGCAAAACACAGAUUCAAAUUACCAGACC", "bound/input enrichment": "0.755 ratio"}
{"Strand": "AAUUGAACAAAAAUGUUUCCACUGGCUUUUGCCUGUAAGAAAAAAAAUGUACCCGAGCACAUAGAGCUUUUUAAUAGCACUAACCAAUGCCUUUUUAGAUGUAUUUUUGAUGUAUAUAUC", "bound/input enrichment": "136 ratio"}
{"Strand": "GAUCACUUCAUUUCUAAGUGUUUUAAGUGGGGAGCAAAGUACAUGUUAAAAGCAUGUUGCAUUAGAUAUAAAUUCAGUUUUUUAAACUCUUACCAAUGUAAGAACUGCAGAAAUAUUUUU", "bound/input enrichment": "3.28 ratio"}
